# Experimental data collected from several papers.
# Every numbered part comes from another study and shows a few of its results, in no order.

# Series 1 — effect on: enzyme activity; mode: inhibitor; tested at: 20 µM; setting: primary screen
# Target: Replicase polyprotein 1ab, main protease (rep, Severe acute respiratory syndrome coronavirus 2, UniProt P0DTD1)
Structure (SMILES),inhibition
CC/C=C\C/C=C\C/C=C/C/C=C\C/C=C\C/C=C\CCC(=O)OCC,30.1%
NC(Cc1ccc(O)c(O)c1)C(=O)O (stereo not shown),33.4%
COC(=O)/C=C/c1cc(O)ccc1O,68.6%

# Series 2 — cell line: HEK-293T/ACE2; tested at: concentration not given; time: 16 (unit not given); reference: vehicle
Compound,viability
CN(C)CCCC1(c2ccc(F)cc2)OCc2cc(C#N)ccc21 (stereo not shown),101%
COc1ccc(C[C@@H]2c3cc(OC)c(OC)cc3CC[N@+]2(C)CCC(=O)OCCCCCOC(=O)CC[N@@+]2(C)CCc3cc(OC)c(OC)cc3[C@H]2Cc2ccc(OC)c(OC)c2)cc1OC,104%
c1ccc(CC2=NCCN2)cc1,97.8%

# Series 3 — method: RNA Bind-n-Seq; molecule type: RNA; matrix: in vitro; tested at: 365 nM; reference: no-protein control; direction: higher = stronger binding
# Target: RNA binding protein fox-1 homolog 2, RRM domain, GST-SBP tag (RBFOX2, Homo sapiens, UniProt O43251-10, residues 100-194)
# Setting: natural RNA segment, single round, ends assumed
# Constant ends, left off below: GGGAGUUCUACAGUCCGACGAUC … UGGAAUUCUCGGGUGCCAA
Oligonucleotide,RBNS enrichment (R)
AUUGGGCCCAAUUCUAAGCUCAACCUAGUUGUUAAGCCUUUGGAGAAGGUGCUACUGGAAGAAGGGUCUGCCCACAGACUGGUCGACUCCCCAGCCACCCCCAUCUGGCA,0.421
AAACCCAUACACAAGUGGAUUUGGCCAUCUUUGGGCAGUGAGGUCAAAUGUGAAUAUGUGUAAAAGUGCUUUUCAGAACUGCAUUACUAUGAGAAAACAUCAAAACUGCU,0.46
ACUCCUGUCCCGGGAGCUCUCAAUGCUAUCCUGGAUUGCCUCGUACCAGUCAGAGGUCAGGACUCCAUGAGUCCAGCUGCCACAAAGGGUUCAGCUUGGAGGUGACACCU,0.377
AUUAACUAUAACAAUCACUGGCUACCGAAGUAAACUGAUGUACUGAAUUCCAUAAUACAUAACAUUCAAUUUUUACCACUUCUGUUUAGCGAACUUGUAUACUUAUUUUC,0.55
GUCCAUCCCCAGCCUCCCAGGGAAGUGCUGCGCUGUUUGUAUUUGUGGUCUGGGCUUUUCUGCCUAGUUCUGUGAUUUCAAUUGACAUGAAAUGGCUAUAAAGAAUUUUG,0.504
UCUGGUUCAGCAUACCUUAUAGUUCAUAUAUAACCUGUAUUAAUUGUAUAGAUUGUGCAUUAAAAGCUGUUACCAAGUUGUCAGAACAUAAGAGCGAAAACAAGGUCAUA,0.501
UUUUGUUUAUAGGAACUUGUAGGGCUCAUUUUGGUUUCAUUGAAACAGUAUCUAAUUAUAAAUUAGCUGUAGAUAUCAGGUGCUUCUGAUGAAGUGAAAAUGUAUAUCUG,0.419
AGAGGCGCCGCACUAGACACCUCAUCCUCAGGUGGCCACAGAGAUGCUCCAACUGCCUGUCUCCAGGUCCCUGGGUGAAUGUGGCCAUCCAGCAGAGAUGCUAGUGGGGC,0.533

# Series 4 — effect on: enzyme activity; mode: inhibitor; tested at: 20 µM
# Target: Replicase polyprotein 1ab, polymerase (rep, Severe acute respiratory syndrome coronavirus 2, UniProt P0DTD1)
SMILES,inhibition [%]
CCCN(CCC)C(=O)C(CCC(=O)O)NC(=O)c1ccccc1 (stereo not shown),27.6
CC(C)c1cc(C(=O)N2Cc3ccc(CN4CCN(C)CC4)cc3C2)c(O)cc1O,0.78
CC(C)(C)c1ccc2cc(C#N)c(C#N)cc2c1,0.12
O=C1[C@@H]2[C@H]3CC[C@H](C3)[C@@H]2C(=O)N1CCCCN1CCN(c2ncccn2)CC1,1.3
Cc1cc(-c2ccc3c(c2)CC[C@H]3N2CC3(CCN(C(=O)Cc4cn5cc(C)sc5n4)CC3)C2)ncn1,7.17
Cc1cccc(NC(=O)N[C@@H]2N=C(c3ccccc3)c3ccccc3N(C)C2=O)c1,0.89
O=C(O)CC(O)C(=O)O (stereo not shown),-2.64
CNCc1ccc(-c2cc(-c3nc(-c4ccc(S(=O)(=O)C(C)C)cc4)cnc3N)on2)cc1,13.5
COc1ccc(C(CN(C)C)C2(O)CCCCC2)cc1 (stereo not shown),-5.04
O=C(Nc1cc(C(F)(F)F)cc(C(F)(F)F)c1)Nc1c(Br)cc(Br)cc1-c1nn[nH]n1,10.5
C=CC(=O)Nc1cccc(C)c1Nc1ncc2cc(-c3c(Cl)c(OC)cc(OC)c3Cl)ccc2n1,4.06
Cc1cc2cc3c(C)cc(=O)oc3c(C)c2o1,3.14
CC(C)(C)Nc1nc(Nc2ccc(C(N)=O)cc2)cc(N)c1C#N,1.16
CCN(C(C)=O)c1cccc(-c2ccnc3c(C#N)cnn23)c1,-11.7
Cc1cc(C(C)(C)CC(C)(C)C)ccc1OCCOCC[N+](C)(C)Cc1ccccc1,0.14
CC(C)c1cc(CNc2nc(Nc3cc(C4CC4)[nH]n3)cc(N3CCN(C)CC3)n2)on1,-4.96
Nc1nc(O)c2ncn(CCC(CO)CO)c2n1,-2.65
S=C=Nc1cccc(NC(=S)NCCCCNC(=S)Nc2cccc(N=C=S)c2)c1,-7.55
Cn1ccnc1S,19
c1cc(Nc2cc(C3CC3)[nH]n2)nc(Nc2ccc3nc[nH]c3c2)n1,-2.65
c1ccc2c(CCNc3ccc(Nc4ccncc4)cc3)c[nH]c2c1,6.01
CCCCOc1ccc(CC(=O)NO)cc1,19.9
CC1=NN(c2ccc(C(=O)O)cc2)C(=O)/C1=C\c1ccc(-c2cc(C)c(C)cc2[N+](=O)[O-])o1,0.99
C[C@@]1(c2cc(-c3cncnc3)c(F)cc2F)CCSC(N)=N1,4.37
CC(C)(C)C#Cc1cc(N(C(=O)[C@H]2CC[C@H](C)CC2)[C@H]2CC[C@H](O)CC2)c(C(=O)O)s1,-0.05

# Series 5 — method: universal PBM; molecule type: double-stranded DNA, one strand shown; matrix: in vitro; tested at: 600 nM; direction: higher = stronger binding
# Target: Sal-like protein 4, full length isoform A (SALL4, Homo sapiens, UniProt Q9UJQ4, residues 1-1053)
# UniProt Q9UJQ4, sequence (whole entry, looked up): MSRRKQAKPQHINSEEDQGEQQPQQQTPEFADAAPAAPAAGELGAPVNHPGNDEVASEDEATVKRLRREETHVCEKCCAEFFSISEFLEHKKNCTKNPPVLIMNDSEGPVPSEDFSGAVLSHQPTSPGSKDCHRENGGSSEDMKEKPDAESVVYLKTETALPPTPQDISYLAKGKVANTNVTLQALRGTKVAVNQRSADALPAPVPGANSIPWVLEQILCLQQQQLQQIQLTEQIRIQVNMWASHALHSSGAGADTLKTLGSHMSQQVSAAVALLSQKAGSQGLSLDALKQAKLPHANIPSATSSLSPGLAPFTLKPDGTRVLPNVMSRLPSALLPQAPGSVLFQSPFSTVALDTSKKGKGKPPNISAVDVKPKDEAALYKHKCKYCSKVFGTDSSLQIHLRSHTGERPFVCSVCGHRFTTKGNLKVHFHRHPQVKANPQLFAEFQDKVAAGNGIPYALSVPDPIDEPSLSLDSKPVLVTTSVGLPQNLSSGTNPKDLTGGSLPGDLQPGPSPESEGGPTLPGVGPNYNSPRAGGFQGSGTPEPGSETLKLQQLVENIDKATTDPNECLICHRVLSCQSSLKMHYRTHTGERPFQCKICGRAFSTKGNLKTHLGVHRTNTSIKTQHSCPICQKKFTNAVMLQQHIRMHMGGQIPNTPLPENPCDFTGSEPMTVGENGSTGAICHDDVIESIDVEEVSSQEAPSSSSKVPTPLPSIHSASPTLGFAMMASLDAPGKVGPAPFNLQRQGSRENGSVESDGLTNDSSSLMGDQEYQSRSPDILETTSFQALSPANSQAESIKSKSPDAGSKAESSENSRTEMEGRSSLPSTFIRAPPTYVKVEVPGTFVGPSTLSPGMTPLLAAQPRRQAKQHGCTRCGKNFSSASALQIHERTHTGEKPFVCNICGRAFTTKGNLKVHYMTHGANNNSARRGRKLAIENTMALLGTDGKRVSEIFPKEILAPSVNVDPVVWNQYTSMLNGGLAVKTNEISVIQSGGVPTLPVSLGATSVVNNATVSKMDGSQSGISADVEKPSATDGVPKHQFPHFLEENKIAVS
# Setting: 8-mer, flanks averaged, mean of replicates
Oligonucleotide,E-score
CAAAAACG,0.096
AGGATGGG,-0.291
AGCTAGAC,-0.0737
GCTCGGGA,-0.294
GCAAATGA,0.0994
AGGGGCAT,-0.0435
AATTGCGC,0.138
AGCCTGAG,-0.0984

# Series 6 — method: protein-binding microarray; molecule type: double-stranded DNA, one strand shown; matrix: in vitro; tested at: 2200 nM top; setting: 60-bp whole probe; added: salmon DNA 0.4 mg/ml; reference: random background probes; direction: higher = stronger binding; constant ends, left off below: GCCTAGCAC … GTCTTGATTCGCTTGACGCTGCTG
# Target: Interferon regulatory factor 7, full length, phosphomimetic (IRF7, Homo sapiens, UniProt Q92985, residues 1-503, S471D/S472D/S475D/S476D/S477D/S483D/S484D/S487D)
# Residues (chain): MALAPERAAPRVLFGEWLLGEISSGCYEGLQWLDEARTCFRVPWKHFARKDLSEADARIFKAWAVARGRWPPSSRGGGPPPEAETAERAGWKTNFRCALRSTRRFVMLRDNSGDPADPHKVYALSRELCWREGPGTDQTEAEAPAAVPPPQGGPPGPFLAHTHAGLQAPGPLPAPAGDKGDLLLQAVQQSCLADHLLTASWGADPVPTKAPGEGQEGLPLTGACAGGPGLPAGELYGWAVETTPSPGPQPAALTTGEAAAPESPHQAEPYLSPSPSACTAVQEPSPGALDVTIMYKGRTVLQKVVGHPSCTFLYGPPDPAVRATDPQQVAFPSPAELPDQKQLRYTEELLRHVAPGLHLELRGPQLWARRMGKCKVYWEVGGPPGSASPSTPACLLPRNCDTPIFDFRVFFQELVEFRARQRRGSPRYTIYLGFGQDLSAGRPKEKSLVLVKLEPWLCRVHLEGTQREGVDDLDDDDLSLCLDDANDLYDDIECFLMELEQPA
Oligonucleotide,fitted relative affinity
TTAGGATTCGGTATCGGTTAGTGCTAG,1.79 z-score
GACGTTATCGACTTTCGGGACGTGCTA,3.36 z-score
GACGGTATCCTTATCGTGACGTGCTAG,0.7 z-score
TTAGAACTGGGGATTCGATTAGTGCTA,0.262 z-score
TCACATCTAGTTCTGCTACTGTGCTAG,1.61 z-score
TCACTCTGCTCTTTTCAAACTGTGCTA,1.76 z-score
TTAGATATCGGGACTGGAATAGTGCTA,-0.388 z-score
GACGAACTGGGGACTGTAGACGTGCTA,-0.0761 z-score
